Results from different studies.
Each numbered part is a random draw from the data of one study; scales do not carry over between parts. Substitutions count along the parent as printed.

Set 1 — target: CCND3, cyclin fold, Cln2 fusion (human); technique: yeast growth competition, sequencing; matrix: yeast; setting: weak parent motif; baseline: not given; direction: higher = stronger binding
Parent: BRCA2 docking peptide (human); PSIKRNLLNEFDR; partner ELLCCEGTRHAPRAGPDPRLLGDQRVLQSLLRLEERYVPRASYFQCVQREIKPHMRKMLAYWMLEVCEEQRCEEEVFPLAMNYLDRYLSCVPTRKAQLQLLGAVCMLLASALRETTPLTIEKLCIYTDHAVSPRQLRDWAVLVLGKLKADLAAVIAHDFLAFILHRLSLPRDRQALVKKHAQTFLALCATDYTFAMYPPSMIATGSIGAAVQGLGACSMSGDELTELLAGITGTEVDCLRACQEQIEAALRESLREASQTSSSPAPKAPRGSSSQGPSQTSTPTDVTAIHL
Substitution	normalised enrichment score
PSIKRNGLNEFDR [L7G]	0.0702
PSIKRNMLNEFDR [L7M]	0.109
PSIKRNLLHEFDR [N9H]	0.0854
PSIKRVLLNEFDR [N6V]	0.0797
PNIKRNLLNEFDR [S2N]	0.0761
PSIMRNLLNEFDR [K4M]	0.171
YSIKRNLLNEFDR [P1Y]	0.168
PSIKRNLLNEFTR [D12T]	0.0802
PSIKRNLLMEFDR [N9M]	0.0139
PSIKRNLLCEFDR [N9C]	0.063
PSIKRNLLNEFIR [D12I]	-0.0255
PSIVRNLLNEFDR [K4V]	0.136
QSIKRNLLNEFDR [P1Q]	0.191
PSIKRNLLNETDR [F11T]	0.091
PSIKRNLLNEFLR [D12L]	0.0202
PSIKRNLLNAFDR [E10A]	0.0499
PSIKRNLLNERDR [F11R]	0.122
PSIKRNLLNEFDV [R13V]	0.124
PSAKRNLLNEFDR [I3A]	0.152
PSIKRNLLNLFDR [E10L]	0.121
PSIKRPLLNEFDR [N6P]	0.198
PSIKRNLLNEPDR [F11P]	0.0455
PFIKRNLLNEFDR [S2F]	0.0934
PSVKRNLLNEFDR [I3V]	0.00262
PSIKRMLLNEFDR [N6M]	0.0436

Set 2 — technique: protein-binding microarray; molecule type: hairpin DNA; matrix: in vitro; tested at: not given; baseline: not given; direction: higher = stronger binding
Target: Protein C-ets-1, full length (ETS1, Homo sapiens, UniProt P14921, residues 1-441)
Setting: whole hairpin DNA, median over replicate spots
Target sequence (chain): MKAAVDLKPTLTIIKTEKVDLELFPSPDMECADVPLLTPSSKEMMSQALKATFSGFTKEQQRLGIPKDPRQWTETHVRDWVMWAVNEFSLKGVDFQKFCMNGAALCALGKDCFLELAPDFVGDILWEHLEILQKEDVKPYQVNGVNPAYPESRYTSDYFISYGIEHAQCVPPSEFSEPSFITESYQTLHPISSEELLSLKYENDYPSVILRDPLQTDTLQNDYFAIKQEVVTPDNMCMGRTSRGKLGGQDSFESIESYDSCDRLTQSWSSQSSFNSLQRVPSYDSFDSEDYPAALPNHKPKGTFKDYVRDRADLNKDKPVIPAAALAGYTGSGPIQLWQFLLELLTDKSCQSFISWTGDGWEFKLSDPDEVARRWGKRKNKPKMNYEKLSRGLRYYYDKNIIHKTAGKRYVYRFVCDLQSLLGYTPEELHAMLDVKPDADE
Strand	median fluorescence [a.u.]
GAGGCCACGCGGAAGTTGCCTCCTGGCAACTTCCGCGTGGCCTCACACTC	5590
GAGGCCAGCGGGAAGTTGCCTCCTGGCAACTTCCCGCTGGCCTCACACTC (5mC at 9)	1130
GAGGCCAGCCGGAAGTTGCCTCCTGGCAACTTCCGGCTGGCCTCACACTC	9160
GAGGCCAGTCGGAAGCGGCCTCCTGGCCGCTTCCGACTGGCCTCACACTC	1640
GAGGCCTGCCGGAAGTTGCCTCCTGGCAACTTCCGGCAGGCCTCACACTC	8780
GAGGCCAGCCGGAACGTGCCTCCTGGCACGTTCCGGCTGGCCTCACACTC (5mC at 15)	1010
GAGGCCAGCCGGACGTTGCCTCCTGGCAACGTCCGGCTGGCCTCACACTC (5mC at 14)	2420
GAGGCCATTCGGAAGTTGCCTCCTGGCAACTTCCGAATGGCCTCACACTC	2180
GAGGCCACCCGGAAGTTGCCTCCTGGCAACTTCCGGGTGGCCTCACACTC	8760
GAGGCCAGTCCGAAGTTGCCTCCTGGCAACTTCGGACTGGCCTCACACTC	543
GAGGCCAGTCGGAAGTTGCCTCCTGGCAACTTCCGACTGGCCTCACACTC (5mC at 34)	4490
GAGGCCAGTCGGAAGGTGCCTCCTGGCACCTTCCGACTGGCCTCACACTC (5mC at 29)	962
GAGGCCACTCGGAAGTTGCCTCCTGGCAACTTCCGAGTGGCCTCACACTC	2650
GAGGCCAGCGGGAAGTTGCCTCCTGGCAACTTCCCGCTGGCCTCACACTC	2170
GAGGCCAGTCGGAAGCTGCCTCCTGGCAGCTTCCGACTGGCCTCACACTC (5mC at 16)	1670

Set 3 — technique: DHFR PCA, deep sequencing; matrix: yeast; with: (+)-ABA 1.4 µM; baseline: wild-type fitted maximum; direction: higher = stronger binding
Target: ABI1, truncated, D143A, DHFR fusion (Arabidopsis thaliana)
Setting: methotrexate growth selection, single substitutions
Parent: PYL1, truncated, DHFR fusion (Arabidopsis thaliana); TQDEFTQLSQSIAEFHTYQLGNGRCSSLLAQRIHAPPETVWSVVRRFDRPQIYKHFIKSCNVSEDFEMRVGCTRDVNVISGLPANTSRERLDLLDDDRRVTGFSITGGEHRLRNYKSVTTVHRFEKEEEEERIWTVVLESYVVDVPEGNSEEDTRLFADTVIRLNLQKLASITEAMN; partner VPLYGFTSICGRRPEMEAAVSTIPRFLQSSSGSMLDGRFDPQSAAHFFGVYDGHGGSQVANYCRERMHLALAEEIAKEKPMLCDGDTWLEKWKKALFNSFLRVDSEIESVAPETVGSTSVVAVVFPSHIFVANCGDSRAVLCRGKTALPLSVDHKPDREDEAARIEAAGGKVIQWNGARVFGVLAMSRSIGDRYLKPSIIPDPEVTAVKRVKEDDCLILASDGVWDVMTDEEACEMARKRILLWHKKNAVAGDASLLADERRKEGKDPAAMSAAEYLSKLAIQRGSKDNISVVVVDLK
Substitution	relative binding score
E129T	62.1%
T119W	-9.11%
L156I	30.9%
T135A	14.2%
A30N	9.2%
S27H	44%
D144C	-25.5%
N85P	0.412%
I52R	36.1%
K58T	3.12%
L166C	5.88%
F15N	3.19%
T39S	35%
G23Y	12.7%
T120V	-2.42%
Q19L	31.6%

Set 4 — technique: RNA Bind-n-Seq; molecule type: RNA; matrix: in vitro; tested at: 365 nM; baseline: no-protein control; direction: higher = stronger binding
Target: RNA binding protein fox-1 homolog 2, RRM domain, GST-SBP tag (RBFOX2, Homo sapiens, UniProt O43251-10, residues 100-194)
Setting: natural RNA segment, single round, ends assumed
Shared flanks, not repeated: GGGAGUUCUACAGUCCGACGAUC … UGGAAUUCUCGGGUGCCAA
Target sequence (chain): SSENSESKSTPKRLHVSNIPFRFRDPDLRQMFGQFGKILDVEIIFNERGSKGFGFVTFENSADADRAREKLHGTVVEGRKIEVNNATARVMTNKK
Strand	RBNS enrichment (R)
CUAAAGGGAAUUGUAAUUUGGUUAUAAUUCAGGAUUUGGAAAUAAAUUUAUUAUUUGUAAAACAUGACUGCAUGUCUGACUUUUUCCUUCACCCUCUUAAAUCAUGUAAU	7.42
GGCUGGAGAAAGGAAGGAAGCAGUGGUUUCCUUAGAUAACUACAGAAUUAUACUGGUCUCUGGGAUUACUCUCUCAGCUGUAUUAAAAUGAAUUUGUACUUUGAAAGGAA	0.614
CCAGGAUCCCUUUGGUGAGUAUGGUGUUCAGGAUGCACCACCACCACCUCUAGAUACCUUCAGGCAACACAGCCCAGUUUUAACCUCUAGUAUCCAUGACCAAACUAUCC	0.416
UGGACAUGUCUGAGCAGAGAAACCGUGGAAUAGAAUAUGGUGCGUGGGCUGCUAACAGCAAGAGGGAGCACUUGUCUUCAUCACAAGCAAGAUGAUGAGCACAGAGUGAG	1.69
GGCCAAGGCAAUGACACAUACAGAAAAGUCAUGGGCAACUUCUCCACCAAGGCUGAUUUAUGUUAUUGCUGGUCUUUUUAGGACAAUGGAUGCAGAAUGAGGUAGCAUUC	2.38
CAACAGAAACCUAUCCUCACUGCCCUCCCCAGUCUCUCUUAAAGUUGGAAUUUACCAGUUAAUUACUCAGCAGAAUGGUGAUCACUCCAGGUAGUUUGGGGCAAAAAUCC	0.573
AGAUUUUACCUCUCAAAGGGUGAGAUUUGAAAUUUACACUAAAAAGACAACUUUACAUUUAAUGCUUCACUUAAUGAGACAUUCUUUUUUUUAUAAGUCUAUUUUUCUAC	0.395
UGGCGCCGUGUCAGGGAAGACCUUGUACACCGGGAAGCAAGCGUGGCUUCAGGCCGAGCGUGGAGUAGCUCUGCAGUCUGCAUGAAUCGGCCUUUGAUCUGGCCAAGUCU	3.32
GGGAAAUACCUUUCCUGGGCUUGUUUUCUAGCAUAUCACUGACCUGGGAUCUUUGGGUGAUCAAGGGUGUGGUUAGUGGAGGCUCUGUGCUGCACGUAUGCAGUAUCCUA	0.324
CUGUCCCCAGCCACACCUUGGGGCAUCCUCUCUGCCUGGCCCUGUCUGAUGAGCAUUUCUGUUGCUUCCAUCAGCCAGAGCUCUGCCAAAGGCCCCGCAUCCCCAUCCUA	0.286
CACUGUACCUGCCUGCUGAACAGCCUGCCCCCGUCCAUCCAUGAGCCAGCAUCCGUCCGUCCUCCACUCUCCAGCCUCUCCCCAGCCUCCUGCACUGAGCUGGCCUCACC	11
UCACAUGUGAAUUUUCUCUACACAUAGCAAACAUAACUUCAUUUGGCUCUAAGUGUCUGAGGAAUGGAGCUCACAAGAGAGCAAACAACAAAGCUACAGUUAUCUGUCUG	0.312
